Experimental data from different studies.
A part holds a random share of what one study measured.

Block 1
Target: RNA binding protein fox-1 homolog 2, RRM domain, GST-SBP tag (RBFOX2, Homo sapiens, UniProt O43251-10, residues 100-194)
Technique: RNA Bind-n-Seq
Molecule type: RNA
Medium: in vitro
Concentration: 365 nM
Setting: natural RNA segment, single round, ends assumed
Relative to: no-protein control
Reading: higher = stronger binding
Quantity: RBNS enrichment (R)
Shared flanks, not repeated: GGGAGUUCUACAGUCCGACGAUC … UGGAAUUCUCGGGUGCCAA
Target sequence (chain): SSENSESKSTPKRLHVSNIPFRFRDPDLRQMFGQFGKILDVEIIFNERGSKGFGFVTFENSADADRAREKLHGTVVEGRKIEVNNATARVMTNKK
GAAGGGGGCACUGCAUUGCUCUUUUGUUGCAGAGGCAGGGGGUAACUGCAUUAUUAUUGUGAAACAAACCGAUGUGGUUUAGAGCCACCAGCACUGACCCUUUCCUAGUU: 0.789
CAGUACCAGAGCAAUCCAGAUGCUGCUGUGCAGUGACGUGGCCUGCGGCCGGGCUGCCUAUUGCUGCCAGGAUACCUGCCCCAGCGCGGCUCGGCCGCCACCCAGGACGC: 0.258
UCCUCUGUGUUUCAAUACCUAUAUACCUAUUGAACAAAGCAGUAGGUAGACAUUUCCUAAAGUUGAAGCAGUAGCUUCAUAGAGUCUUGGUUACUUUAUUUUUUUUAAUG: 0.815
GGCAGAAAUGAAGGGAUUUCAUUUGAACUUAGAGCAUGAUGAAUUUGAGUGGGUGCACAGGAAGCAGCUAGCGGAUAGGAAGGCACUCUGCUCUGUGAUGGCAAGUGAAG: 10.1
UAUAAGGCGCCAUCAUUCCUCAAGUCAAGCCUCCAUCCCAAAGCACCUGGAGCUGUGGCAAUGAUGCCAGCAACCUGUGUCACCCAAAAUAGUCAAAAUCCAGCCCUCCA: 0.848
AAGUAUGUACUCUUUGCUUUUGCAUGGCUUGGCUUAGUAUCCAAGGUAUAUUAGAGCCACUUGAAAGCAUGAAGACCAGUUAUAUGGAAACAGGUUUCUCUCAGUGGCAC: 6.72
GGGGCCUCCUUGUCAGCUCUGCUGCUGUCUCAGAGCCAUCUGGAUGAGUGUCCCGACACCCUCUCGGAUGCAGGGCAGGACCACCCAGCUGGUCAGACUCUGAUGUUGGG: 0.329
AAAAGAAGGGGGGAAAUGGUCAGUUUAAGCCAAAAGAAACUUUCUAAACAAUGUAUAGGUACACAGCAAAAUUAAACAAAUCCAACAAUUUCUGAAGCUUAGUGUAAUUG: 0.492
AUGGCAGGGGCUCCUCUGUCUGGCCUGCCUUUUUUUCCUGGUCAGCUGCUCUUAGCGCCGGCUCUGCCUCUCCACCCUUGGCAGGGCUGGCUGGAGUUGCUGUGGGGACU: 0.345
UUUAUCUUACGAAGUAGCUACAGGGUUCUAGCAGUUUCCAGAAUAUAAUGUAGGGGGAUAGCGGGAUAUUUUUGUUUGUGUUCUUGUAAUAUAUUAUCCUUCCUUGGUUC: 1.16
GUUCCAAGUUGGUUGCUGUGACAACCUCCAGGAAGAGCCACUUGUUACCCUCUAUUCUUUCUAGUGCUUUCAGUCAGUGGCAACACAUAGGCCCCUUGGACCGUGGGGAU: 0.411
CUCACUGUCACCCUUUCUGCCUUGGUUUCCCUAGCUGAGCCACGCUGCCCAUGCAGCAGAGGGCAGAAGGCUUGCACUUGGGCCAAAGGGCCUAAGGUCCACUGGACAGU: 0.383

Block 2
Target: Histone acetyltransferase KAT6A, both winged helices, GST fusion (KAT6A, Homo sapiens, UniProt Q92794, residues 1-181)
Technique: protein binding microarray
Molecule type: double-stranded DNA, one strand shown
Medium: in vitro
Concentration: not given
Setting: 8-mer, flanks averaged, mean of 2 arrays, mostly near background
Relative to: not given
Reading: higher = stronger binding
Quantity: E-score
Residues (chain): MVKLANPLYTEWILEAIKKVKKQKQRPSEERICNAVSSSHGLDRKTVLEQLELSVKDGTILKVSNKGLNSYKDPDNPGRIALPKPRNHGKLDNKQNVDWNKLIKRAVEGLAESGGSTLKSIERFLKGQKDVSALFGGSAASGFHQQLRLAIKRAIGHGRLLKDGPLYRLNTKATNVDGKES
CCCCTTTC: -0.0923
GTCGACTA: 0.0479
CTGCGCTA: 0.168
AGGTAGAC: -0.0773
GCTTCCAA: -0.00436
CTTTCGAA: -0.0483
AAAGGACA: -0.205
CACTACGG: 0.156
CGCTGCGA: 0.159
GAATGTCA: -0.157
CATATATA: -0.0566
AGCTAAGG: -0.195
AACTACTC: 0.00013
GTTTGTCA: 0.0176
AAACCGCA: -0.0241
CAGGGACC: -0.124
ACCTACGT: -0.125
GCCAGGCA: -0.0292
CGCGTTAG: 0.276
CTAATCAG: -0.0936
GAACGATC: 0.121
CCCCCGAG: 0.0643
ATCGAGGC: -0.0106
AAATCGCC: -0.0109
CCAGGACG: 0.13

Block 3
Target: Sal-like protein 4, full length isoform B (SALL4, Homo sapiens, UniProt Q9UJQ4-2, residues 1-616)
Technique: universal PBM
Molecule type: double-stranded DNA, one strand shown
Medium: in vitro
Concentration: not given
Setting: 8-mer, flanks averaged, mean of replicates
Reading: higher = stronger binding
Quantity: E-score
AGGCGAAG: -0.0727
CGCTGACG: -0.171
ACCCGTGG: -0.233
GACTCTGC: -0.288
CTCGGTTC: -0.225
GGACAGAA: 0.0318
CTTCACGC: -0.0714
CAGTTACC: -0.0508
CCAAGCAG: -0.177
AAGTTGGC: 0.0241
CCCCGATC: -0.277
CGGCATGA: 0.0565
CTTATTTC: 0.325
TCAATTGA: 0.184
ATATTCTC: 0.258
AACGTGGT: -0.0911
GTATTTGA: 0.187
ACTTCAGG: 0.00425
TGTTGAAA: 0.211
ACGTGAAC: -0.171
CTAGATCC: -0.125

Block 4
Target: RING finger protein unkempt homolog, zinc fingers 1-6, GST-SBP tag (UNK, Homo sapiens, UniProt Q9C0B0, residues 30-357)
Sequence of UniProt Q9C0B0 (30-357, looked up): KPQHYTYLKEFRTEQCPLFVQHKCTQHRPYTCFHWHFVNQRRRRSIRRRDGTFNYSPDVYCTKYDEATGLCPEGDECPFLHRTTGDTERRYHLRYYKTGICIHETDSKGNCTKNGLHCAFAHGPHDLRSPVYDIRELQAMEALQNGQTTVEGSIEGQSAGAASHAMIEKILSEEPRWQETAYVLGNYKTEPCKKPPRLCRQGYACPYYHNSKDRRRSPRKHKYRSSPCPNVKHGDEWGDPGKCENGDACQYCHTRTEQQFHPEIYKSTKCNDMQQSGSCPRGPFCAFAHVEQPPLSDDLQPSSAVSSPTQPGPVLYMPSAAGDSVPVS
Technique: RNA Bind-n-Seq
Molecule type: RNA
Medium: in vitro
Concentration: not given
Setting: RNA with constant flanks, ends assumed
Relative to: input RNA pool
Reading: higher = stronger binding
Quantity: bound/input enrichment
Shared flanks, not repeated: GGGAGUUCUACAGUCCGACGAUC … CAACAGAGGAUUGAGCAUCA
UUCAAAGAGAAAACCCAGCAGUGGAAGUUGCUUGGCCAAUCCCAAGAUAAUGAAAAGGAAUCCGCUGCCCUCUUCCAGCUAUGGCUAGAGACCAAAGAUCAGGCCUUCUGUAAGCAAGAA: 0.147 ratio
ACUUGUUCACUGGAUUGUCUGGGAUGACUUGGGCUCAUAUCCACAAUACUUGGUAUAAGGCCGCCGAUUGUUGGGGGUGGGGAGGGAGGGAUCUAGGAUACAGGGCAGGGAUAAAUACAG: 13.4 ratio
AUAAGAAAUUUUCUGUGAAAUAUCCUUCCAUUGUUUAAGCUUUUGUUUUGGUCAUCUUUAUUCCGUUUGCAUGAAGUUGAAAAUUAAGGCAUUUUUAAAAAUUUUACUUCAUGCCCAUUU: 0.411 ratio
UUGACAUUACAGCCAAGAUGGUGCUGUCCCAGAGACAACGAGAUGAACUAAAUCGAGCUACCGCAGAUUAUCUUCGUUCAAAUGGCUAUGAAGAGGCAUAUUCAGUUUUUAAAAAGGAAG: 0.191 ratio
GGCUUCGAGCUUCCUCAAGGGCCCCUGGGAACAUCCUUUAAAGGAAAAUAUGGUUGCGCCGACUACUGGGUGAAGGCUUUUCUCGAUCGCCCCAGCCAGCCAACUCAAGAGGCAAAGAAA: 0.119 ratio
GUACUGCUGGUCCUGUACCAGAAACAUUUUCUUUUAUUGUUACUUGCUUUUUAAACUUUGUUCCGCCACUUAAAAUCUGCUUAUGGCACAAUUUGCCUCAAAAUCCAUUCCAAGUUGUAU: 0.514 ratio
CUCCCACCCGCGUGUGUAAGCGCGGCCCGCCUCCUACAUCCAGCCCGCGCCCUCCAACCGCACCGGAUCCAUGUAUUUAUUUUCCUUGAGUUUUUAUUUAUGCUGUAACUCGUGUCAAGC: 0.912 ratio
CUGCGCCAGAGAACAGAGAAUAUAGAUAUUAAAAAGUAUUGUGUGCAGUACCUGGAGGAUGCCGGUUCUUUUGCAUACACUCGACACACUCUUAGAGAGCUUGAAGCUAAAGCCUACAAA: 11.2 ratio
GGUCUAAACAAAUGUGAAGUUAGUCAUAGGCGAGCCUUUCAUGGCUGGAAUGAGUUUGAUAUCCGUGAAGAUGAGCCACUGUGGAAGAAGUAUAUUUCUCAGUUUAAAAAUCCCCUUAUU: 0.388 ratio
GGUGUUCCCUCUUUUUUUCCACGAGGGUGUUUUUGGCUGCAAUUGCAUGAAAUCCCAAUGGUGCCGACCAGUGGCGAUGGAUCUAGGAGUUUACCAACUGAGACAUUUUUCAAUUUCUUU: 0.533 ratio
CAUAGAAUUUAUACUGCUGAGCUGGCACACAUUUACUUUAGGAAACCUAACUGGAAAUGUCCGGUGAGGAACAGAACUGGAGAAUUCAAAAGUGACAUUUUUGUAGCCAACCUCAGUAUA: 1.76 ratio

For quick reference, copied from above (block 4):
GGUCUAAACAAAUGUGAAGUUAGUCAUAGGCGAGCCUUUCAUGGCUGGAAUGAGUUUGAUAUCCGUGAAGAUGAGCCACUGUGGAAGAAGUAUAUUUCUCAGUUUAAAAAUCCCCUUAUU: 0.388 ratio
ACUUGUUCACUGGAUUGUCUGGGAUGACUUGGGCUCAUAUCCACAAUACUUGGUAUAAGGCCGCCGAUUGUUGGGGGUGGGGAGGGAGGGAUCUAGGAUACAGGGCAGGGAUAAAUACAG: 13.4 ratio
GGUGUUCCCUCUUUUUUUCCACGAGGGUGUUUUUGGCUGCAAUUGCAUGAAAUCCCAAUGGUGCCGACCAGUGGCGAUGGAUCUAGGAGUUUACCAACUGAGACAUUUUUCAAUUUCUUU: 0.533 ratio
CUCCCACCCGCGUGUGUAAGCGCGGCCCGCCUCCUACAUCCAGCCCGCGCCCUCCAACCGCACCGGAUCCAUGUAUUUAUUUUCCUUGAGUUUUUAUUUAUGCUGUAACUCGUGUCAAGC: 0.912 ratio
CUGCGCCAGAGAACAGAGAAUAUAGAUAUUAAAAAGUAUUGUGUGCAGUACCUGGAGGAUGCCGGUUCUUUUGCAUACACUCGACACACUCUUAGAGAGCUUGAAGCUAAAGCCUACAAA: 11.2 ratio
GUACUGCUGGUCCUGUACCAGAAACAUUUUCUUUUAUUGUUACUUGCUUUUUAAACUUUGUUCCGCCACUUAAAAUCUGCUUAUGGCACAAUUUGCCUCAAAAUCCAUUCCAAGUUGUAU: 0.514 ratio
AUAAGAAAUUUUCUGUGAAAUAUCCUUCCAUUGUUUAAGCUUUUGUUUUGGUCAUCUUUAUUCCGUUUGCAUGAAGUUGAAAAUUAAGGCAUUUUUAAAAAUUUUACUUCAUGCCCAUUU: 0.411 ratio
GGCUUCGAGCUUCCUCAAGGGCCCCUGGGAACAUCCUUUAAAGGAAAAUAUGGUUGCGCCGACUACUGGGUGAAGGCUUUUCUCGAUCGCCCCAGCCAGCCAACUCAAGAGGCAAAGAAA: 0.119 ratio
UUCAAAGAGAAAACCCAGCAGUGGAAGUUGCUUGGCCAAUCCCAAGAUAAUGAAAAGGAAUCCGCUGCCCUCUUCCAGCUAUGGCUAGAGACCAAAGAUCAGGCCUUCUGUAAGCAAGAA: 0.147 ratio
